Assay results collected from several papers.
Each line is one published result; not all experiments were run side by side. Several values in a cell are separate wells, animals, samples, runs or records. ± marks the error that the study gave.

`Clc1nc(NCc2ccco2)c2[nH]cnc2n1` gave a ΔPSI of 0.244 (FD iPSC-derived cardiomyocytes; alternative splicing, RNA-seq, item: EEF1D exon chr8:143581285-143581706; unit not given; reference: DMSO minus compound).
With `Cn1cc(-n2cnc3c(NCc4nc5cc(Cl)c(Cl)cc5[nH]4)nc(N4CCOCC4)nc32)cn1` the mRNA level was 0.678 and 0.576 and 0.623 (MDA-MB-231; qRT-PCR, item: FANCI; 0.05 µM, 6 h, unit not given; reference: DMSO).
`NC(=O)NOCCCCCCCCCC[P+](c1ccccc1)(c1ccccc1)c1ccccc1.O=C([O-])C(F)(F)F` gave a cell confluence of 13.8% (HCT-116; cell growth, live-cell imaging; 12.5 µM, control at 90% confluence).
With `CC(=O)O[C@@]12CO[C@@H]1C[C@H](O)[C@@]1(C)C(=O)[C@H](O)C3=C(C)[C@@H](OC(=O)[C@H](O)[C@@H](NC(=O)OC(C)(C)C)c4ccccc4)C[C@@](O)([C@@H](OC(=O)c4ccccc4)[C@H]21)C3(C)C` the CD44-positive cells was 7 fold (4T1; flow cytometry; concentration not given; reference: PBS).
With `OCc1ccc(-c2nn(Cc3ccccc3)c3ccccc23)o1` the IC50 was 690 nM (RBE; cell viability, CellTiter-Glo).
With `Cn1cnc2c(F)c(Nc3ccc(Br)cc3F)c(C(=O)NOCCO)cc21` the viability was 103% (HCT-116; 0.07813 µM, 72 h).
The sarcomere length of `CC(C)NCC(O)c1ccc(O)c(O)c1` (centres unmarked) is reported as 1.8 µm (mouse ventricular cardiomyocytes; dose not given, 0.023 s).
`COc1nc(NCc2cn(-c3ccc(C(=O)Nc4ccccc4)cc3)nn2)nc(OC)n1`: “cell cycle phase %S” 39.2% (HCT-116; flow cytometry; IC50, 24 h).
The EC50 of `CCn1cc(-c2cc(Cn3ccnc3)cc3c2CCN([C@H](c2cc(OC)ccn2)C2CC2)C3=O)c(C(F)(F)F)n1` is reported as 31200 nM (BT-474; cell growth, inhibitor; 120 h).
`NC(=O)NOCCCCCCCCCCCC[P+](c1ccccc1)(c1ccccc1)c1ccccc1.O=C([O-])C(F)(F)F` has a cell confluence of 90.8 ± 3.61% (HCT-116; cell growth, live-cell imaging; 1 µM, control at 90% confluence).
`C=CC1=C(C)c2cc3[n-]c(cc4nc(cc5[n-]c(cc1n2)c(C)c5C=C)C(C)=C4CCC(=O)O)c(CCC(=O)O)c3C.[Zn+2]` gave a fold change of 1.73 (SH-SY5Y; RNA-seq, item: KLF6 mRNA; 5 µM, 5 h; reference: untreated cells).
`NC(=O)NOCCCCCCCCCCCCCCCCCCCC[P+](c1ccccc1)(c1ccccc1)c1ccccc1.O=C([O-])C(F)(F)F` has a cell confluence of 7.67 ± 0.98% (HCT-116; cell growth, live-cell imaging; 0.5 µM, control at 90% confluence).
For `C=Cc1c2[n-]c(c1C)/C=c1\[n-]/c(c(C)c1C=C)=C\c1[n-]c(c(CCC(=O)O)c1C)/C=c1\[n-]c(c(C)c1CCC(=O)O)=C2.[Sn+4]`, the fold change was 3.45 (SH-SY5Y; RNA-seq, item: PTGS1 mRNA; 5 µM, 5 h; reference: untreated cells).
The IC50 of `CC(O)c1ccc(-c2nn(Cc3ccccc3)c3ccccc23)o1` (centres unmarked) is reported as 6900 nM (RBE; cell viability, CellTiter-Glo).
For `Cc1sc2c(c1C)C(c1ccc(Cl)cc1)=N[C@@H](CC(=O)NCCCCCCCCNC(=O)COc1cccc3c1C(=O)N(C1CCC(=O)NC1=O)C3=O)c1nnc(C)n1-2` (some centres unmarked), “early apoptotic cells” read 3.44% and 2.64% and 2.62% (4T1; Annexin V-FITC/PI flow cytometry; concentration not given).
The funny current of `CCN(CCO)CCCC(C)Nc1ccnc2cc(Cl)ccc12` (centres unmarked) is reported as -22 pA and -29.1 pA and -27.3 pA and -5.4 pA and -4.9 pA (hiPSC-derived cardiomyocytes; perforated patch voltage clamp; 10 µM, added: hyperpolarizing step to -120 mV).
`C[C@H](CCC(=O)NCCS(=O)(=O)O)[C@H]1CC[C@H]2[C@@H]3CC[C@@H]4C[C@H](O)CC[C@]4(C)[C@H]3CC[C@]12C` has a PCNA-positive nuclei of 81% (PCK rat cholangiocyte cysts; 20 µM; reference: untreated).
For `Nc1cccc2c1C(=O)N(C1CCC(=O)NC1=O)C2=O` (centres unmarked), “surface marker level” read 30.5% (RPMI-8226; flow cytometry, item: CD36; concentration not given; reference: comparator compound alone).
The EC50 of `C[C@]12CCCN1CC1=NNC(=O)c3cc(F)cc4[nH]c2c1c34` is reported as over 3000 nM (SW1573 colorectal cancer cells; cell viability; concentration not given, added: with temozolomide).
`COc1ccc2c(N(C)c3ccc(/C(C)=N/OCCN)cc3)c3c(Cl)coc3nc2c1` has a growth inhibition of 80 to 90% and 70 to 80% (VCaP-AI; trypan blue exclusion; 1 µM, 72 h, SR conditions).
With `O=C(/C=C/C=C/C=C/C1CCCCC1)NC1=C[C@@](O)(/C=C/C=C/C=C/C(=O)NC2=C(O)CCC2=O)[C@@H]2O[C@@H]2C1=O` the GI50 was 18000 nM (IPC-298; cell growth, CellTiter-Glo; 78 h).
`Cn1cc(-c2ccc(-c3cncc(Cl)c3N3CCC4(CCNC4=O)CC3)cc2)cn1` — result for “log2 fold change”: -2.63 (COLO 205; gene expression, microarray, item: PLK4 (STK18) mRNA; concentration not given, 6 h; reference: untreated cells).
`Cc1cnc(NC2CCOCC2)nc1-n1cnc(C(=O)NC(CN)c2cc(F)cc(Cl)c2)c1` (centres unmarked) gave a sub-G0 cells of 1.7% (Rec1; flow cytometry; 1 µM, 24 h).
`NC(=O)NOCCCCCCCCCCCCCC[P+](c1ccccc1)(c1ccccc1)c1ccccc1.O=C([O-])C(F)(F)F` has a cell confluence of 83.1% (HCT-116; cell growth, live-cell imaging; 0.3 µM, control at 90% confluence).
`OCc1ccc(-c2nn(Cc3cncnc3)c3ccccc23)o1` gave an IC50 of 1030 nM (RBE; cell viability, CellTiter-Glo).
The EC50 of `COc1cnc2cccc(N3CCc4c(cc(Cn5ccnc5C)cc4-c4cn(C)nc4C(F)(F)F)C3=O)c2c1` is reported as 1050 nM (TEN; cell growth; 120 h).
`Cn1cc(Nc2nccc(-c3ccc4c(c3)CN(C3COC3)CC[C@H]4NC(=O)c3cn(C(C)(C)C)nn3)n2)cn1` — result for “number of upregulated genes”: 0 (human B cells; 100 nM, 64 h, stimulation-upregulated genes, added: CpG ODN2006).
For `COc1ccc2c(c1)CN(C(=O)CCN1CCC(Cc3ccccc3)CC1)CC[S@@+]2[O-]`, APD90 read “decreased” (hiPSC-derived cardiomyocytes; 10 µM).
The IC50 of `OCc1ccc(-c2nn(Cc3ccc(Cl)cc3)c3ccccc23)o1` is reported as 1580 nM (RBE; cell viability, CellTiter-Glo).
`Cc1ccc(NC(=O)c2ccc(CN3CCN(C)CC3)cc2)cc1Nc1nc(-c2cccnc2)cs1` has a beat amplitude of 106% (hiPSC-derived cardiomyocytes (iCell); impedance (xCELLigence Cardio); concentration not given, 2 h; reference: control).
`NC(=O)NO` gave a cell confluence of 67 ± 9.44% (HCT-116; cell growth, live-cell imaging; 100 µM, control at 90% confluence).
`Nc1ncnc2c1ncn2[C@@H]1O[C@H](CO)[C@@H](O)[C@H]1O` — result for “log2 fold change”: 1.1 and 1.3 and 1.2 (activated human T cells; item: ATP; 30 µM; reference: DMSO).
The fold change of `Cn1c(Nc2nc3ccc(C(F)(F)F)cc3s2)nc2cc(C(=O)NCCOCCO)ccc21` is reported as 2.11 (SH-SY5Y; RNA-seq, item: ITGA6 mRNA; 5 µM, 5 h; reference: untreated cells).
The necrotic cells of `CC1(C)CCC(CN2CCN(c3ccc(C(=O)NS(=O)(=O)c4ccc(NCC5CCOCC5)c([N+](=O)[O-])c4)c(Oc4cnc5[nH]ccc5c4)c3)CC2)=C(c2ccc(Cl)cc2)C1` is reported as 0.2% (THP-1; annexin V/PI flow cytometry, item: annexin V-/PI+; 3.2 µM, 24 h).
`CCn1cc(-c2cc(Cn3ccoc3=N)cc3c2CCN([C@@H](C)c2cc(OC)ccn2)C3=O)c(C(F)(F)F)n1` gave an EC50 of 3100 nM (SU-DHL-4; cell growth, inhibitor; 120 h).
`O=P1(C2CCCCC2)CCCCC1` gave a necrotic cells of 0.85% (SW-620; annexin V/PI flow cytometry; IC50, 72 h).
The IC50 of `COc1cc(Cn2nc(-c3ccc(CO)o3)c3ccccc32)ccn1` is reported as 380 nM (RBE; cell viability, CellTiter-Glo).
For `Cc1cccc(-c2[nH]c(CNc3ccccc3F)nc2-c2ccc3ncnn3c2)n1`, “surface marker level” read 167% (RPMI-8226; flow cytometry, item: CD135; concentration not given; reference: comparator compound alone).
For `C=CCn1c(=O)c2cnc(Nc3ccc(N4CCN(C)CC4)cc3)nc2n1-c1ccc2c(n1)[C@@](O)(CC)CC2`, “G2/M cells in subpopulation” read 5.1% (NCI-H1048; flow cytometry, item: pHH3+γH2Ax+; concentration not given).
With `OCc1ccc(-c2nn(Cc3ccccc3F)c3ccccc23)o1` the IC50 was 1190 nM (RBE; cell viability, CellTiter-Glo).
For `CCn1c2ccc(CNC)cc2c2ccc(-c3cc(C)cs3)cc21`, “E2F1 mRNA level” read “no effect” (NCI-H1299 expressing p53 Y220C; RT-qPCR; 3 µM, 24 h; reference: DMSO).
For `O=c1[nH]nc(OCCCc2ccc(Cl)cc2)c(NCc2cccnc2)c1Br`, “normalized enrichment score” read 1.15 (HEK-293T; RNA-seq GSEA, item: HALLMARK_IL2_STAT5_SIGNALING; concentration not given; direction not given).
For `CC(C)n1nc(-c2cc3cc(O)ccc3[nH]2)c2c(N)ncnc21`, the cell index was 91% (hiPSC-derived cardiomyocytes (iCell); impedance; concentration not given, 24 h; reference: control).
`CC/C(=N\NC(=O)NCc1cccc(O)c1)c1ccc(O)c(C)c1O` gave a protein level of 1.53 ± 0.76 (SK-OV-3; Western blot, item: TAZ; 1 µM, 1 h, 2D culture, unit not given; reference: β-actin).
`CCCOc1ccc(-c2ccc(C#N)cc2)cc1`: “number of downregulated genes” 195 (BeWo; RNA sequencing; 5 µM, low dose, log2 fold change and q cut-offs).
For `OCCCN1CC[C@@H]2C[C@H]1c1cc(-c3ccc(C(F)(F)F)cc3)ccc12`, “time to maximal effect” read 16 h (neurons, DRG, mouse, wild type; item: p-eIF2α; 100 nM).
With `Cc1c(C(=O)O)ccc2c3n(nc12)[C@@H]1[C@H](C3)N(CC2CC2)[C@@]2(C(=O)Nc3cc(Cl)ccc32)[C@H]1c1cccc(Cl)c1F` the IC50 was 0.61 nM (LS174T; cell growth, alamarBlue; unbound, 4.5% of total).
For `C[C@H](Nc1ccc2c(c1)OCCn1cc(N3C(=O)OC[C@H]3C(F)F)nc1-2)C(N)=O`, “Hill coefficient GR curve” read 0.736 (MFE-280; cell growth, CellTiter-Glo; 120 h).
For `Cc1nn(-c2nc3c(F)cc(F)cc3s2)c(O)c1C(c1ccc(C(F)(F)F)cc1)c1c(C)nn(-c2nc3c(F)cc(F)cc3s2)c1O`, “phospho-TBK1 to TBK1 ratio” read 0.459 and 0.826 and 0.633 (RAW-ISG; western blot; 10 µM, added: HT-DNA; reference: DMSO).
The beat rate of `COc1ccc(COc2ccc(Cc3cnc(N)nc3N)cc2OC)cc1` is reported as 102% (hiPSC-derived cardiomyocytes (iCell); impedance (xCELLigence Cardio); concentration not given, 2 h; reference: control).
For `CCCN1CCN(c2ccc3nc(-c4ccc5nc(-c6cc(OC)ccc6OC)[nH]c5c4)[nH]c3c2)CC1`, the growth percent was 104% (SF-295; SRB; 10 µM, 48 h).
The IC50 of `OCc1ccc(-c2nn(Cc3cccnc3)c3ccccc23)o1` is reported as 270 nM and 260 nM (RBE; cell viability, CellTiter-Glo).
`COc1ccc(-n2nc(C(C)=O)s/c2=N\N=C(/C)c2ccc(NC(=O)c3ccc(C)cc3)cc2)cc1` has a viability of 17.7% (MCF7; 0.312 µM).
